Assay results of several laboratories.
Each line is one published result; not all experiments were run side by side.
Target: Cytochrome P450 1A2 (CYP1A2, Homo sapiens, UniProt P05177)
UniProt P05177, sequence (whole entry, looked up): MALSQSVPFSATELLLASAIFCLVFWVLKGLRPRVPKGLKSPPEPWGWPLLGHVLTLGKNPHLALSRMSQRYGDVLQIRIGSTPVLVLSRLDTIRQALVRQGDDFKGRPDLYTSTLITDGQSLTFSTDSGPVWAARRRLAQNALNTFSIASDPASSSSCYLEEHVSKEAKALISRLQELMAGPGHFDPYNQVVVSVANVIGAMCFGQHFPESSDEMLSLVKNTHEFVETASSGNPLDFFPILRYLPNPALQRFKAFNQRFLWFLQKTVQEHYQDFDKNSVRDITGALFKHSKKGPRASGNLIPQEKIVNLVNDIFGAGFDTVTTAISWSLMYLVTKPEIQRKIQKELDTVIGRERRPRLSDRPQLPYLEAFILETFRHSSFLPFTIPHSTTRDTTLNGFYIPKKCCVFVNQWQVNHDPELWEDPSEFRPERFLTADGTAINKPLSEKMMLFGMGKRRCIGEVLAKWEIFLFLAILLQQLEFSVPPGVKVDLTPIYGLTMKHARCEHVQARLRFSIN
Action: inhibitor

SMILES | test | system | conditions | quantity | value
O=c1cc(-c2ccccc2)oc2ccc(O)cc12 | enzyme activity | – | – | IC50 | 6.92 µM
CSc1nc2cc(Cl)c(Oc3cccc(Cl)c3Cl)cc2[nH]1 | – | human liver microsomes | 2 µM, pH 7.4, added: phenacetin | inhibition | 68.2%
C#CCOc1ccc2oc(-c3ccccc3)cc(=O)c2c1 | enzyme activity | – | – | IC50 | 0.71 µM
O=C1Cc2cc(CCN3CCN(c4nsc5ccccc45)CC3)c(Cl)cc2N1 | – | human liver microsomes | 10 µM, pH 7.4, added: phenacetin | inhibition | < 0%
C=CC(C)(C)c1cc(/C=C/C(=O)c2ccc(O)cc2)c(OC)cc1O | – | – | – | IC50 | < 20 µM
O=c1cc(-c2ccccc2O)oc2ccccc12 | enzyme activity | – | – | IC50 | 9.39 µM
C=C[C@H]1CN2CCc3c([nH]c4cccc(OC)c34)[C@@H]2C[C@@H]1/C(=C\OC)C(=O)OC | enzyme activity | human, liver microsomes | – | IC50 | > 45 µM
O=c1cc(-c2cccc(O)c2)oc2ccccc12 | enzyme activity | – | – | IC50 | 9.22 µM
O=C(O)C(F)(F)C(F)(F)C(F)(F)C(F)(F)C(F)(F)F | enzyme activity | Supersomes | added: 7-methoxyresorufin substrate | IC50 | > 100 µM
CC(C)(O)c1ccccc1CC[C@@H](SCC1(CC(=O)O)CC1)c1cccc(/C=C/c2ccc3ccc(Cl)cc3n2)c1 | – | human liver microsomes | 2 µM, pH 7.4, added: phenacetin | inhibition | < 0%
O=C(O)C(F)(OC(F)(F)C(F)(F)C(F)(F)F)C(F)(F)F (stereo not drawn) | enzyme activity | Supersomes | added: 7-methoxyresorufin substrate | IC50 | > 100 µM
CC[C@H]1CN2CCc3c([nH]c4cccc(OC)c34)[C@@H]2C[C@@H]1/C(=C\OC)C(=O)OC | enzyme activity | human, liver microsomes | – | IC50 | > 45 µM

Repeated from above:
SMILES | test | system | conditions | quantity | value
O=C(O)C(F)(F)C(F)(F)C(F)(F)C(F)(F)C(F)(F)F | enzyme activity | Supersomes | added: 7-methoxyresorufin substrate | IC50 | > 100 µM
CC(C)(O)c1ccccc1CC[C@@H](SCC1(CC(=O)O)CC1)c1cccc(/C=C/c2ccc3ccc(Cl)cc3n2)c1 | – | human liver microsomes | 2 µM, pH 7.4, added: phenacetin | inhibition | < 0%
